Published values from different studies.
Compare with care: the assays were run in different laboratories. “And” joins repeats or separate records; there may be more than shown. ± marks the error that the study gave.

For `FC(F)(F)c1cc2nc(c1)CNCc1cc(C(F)(F)F)cc(n1)CNC2`, the LD50 was 0.657 mM (Friedreich's ataxia fibroblasts; MTT).
The hemolysis of `CN(C)CCCNC(=O)[C@@H]1NC(=O)[C@@H]2Cc3ccc(cc3)Oc3cc4cc(c3O)-c3ccc5c(c[nH]c5c3)C[C@@H](NC(=O)C(NC(=O)CCCCCN)c3ccc(O)cc3)C(=O)N[C@H](c3ccc(O)cc3)C(=O)N[C@H]4C(=O)N[C@@H](C(=O)N2C)c2ccc(cc2)Oc2cc1ccc2O` (some centres unmarked) is reported as 0% (human red blood cells; 64 µg/mL, 1 h, 37 °C, 1% DMSO).
For `CNC(=O)C[C@H](Cc1ccncc1)NC(=O)[C@@H](Cc1cccc(Br)c1)NC(=O)[C@@H](N)Cc1ccsc1`, the viability was 0.952 and 1.03 and 1 (Huh-7-ACE2; CellTiter-Glo; 0.000381 µM, 48 h, unit not given; relative to: DMSO).
With `CCCCCCCCC=CCCCCCCCCNC(=O)C(N)Cc1ccc(OP(=O)(O)COC(CO)Cn2ccc(N)nc2=O)cc1` (centres unmarked) the CC50 was 0.2 µM (HFF; cell growth or viability, ATP luminescence; 14 days).
For `CC[C@H](C)[C@H](NC(=O)[C@H](Cc1c[nH]c2ccccc12)NC(=O)[C@H](CCCCN)NC(=O)[C@H](CC(C)C)NC(=O)[C@@H](NC(=O)[C@@H](NC(=O)CNC(=O)[C@@H](N)CCCCN)[C@@H](C)O)[C@@H](C)CC)C(=O)N[C@@H](CC(N)=O)C(=O)N[C@@H](C)C(=O)NCC(=O)N[C@@H](CCC(N)=O)C(=O)N[C@@H](CO)C(=O)N[C@@H](Cc1ccccc1)C(=O)N[C@@H](CCC(=O)O)C(=O)N[C@@H](Cc1c[nH]c2ccccc12)C(=O)N[C@H](C(=O)N[C@@H](Cc1ccc(O)cc1)C(=O)N[C@@H](CCCCN)C(=O)N[C@@H](CCC(N)=O)C(=O)N[C@H](C(=O)N[C@@H](CCCCN)C(=O)N[C@@H](CCCCN)C(=O)N[C@@H](CC(C)C)C(=O)N[C@@H](Cc1c[nH]c2ccccc12)C(=O)N[C@@H](C)C(N)=O)[C@@H](C)CC)[C@@H](C)CC`, the HD50 was 150 µg/mL (human erythrocytes; hemolysis; pH 7.2; relative to: water complete hemolysis).
For `CC[C@H](C)[C@H](NC(=O)[C@H](C)NC(=O)[C@H](CCCCN)NC(=O)[C@H](CC(C)C)NC(=O)[C@@H](N)Cc1ccccc1)C(=O)N[C@@H](CCCCN)C(=O)N[C@@H](CCCCN)C(=O)N[C@@H](Cc1ccccc1)C(=O)NCC(=O)N[C@@H](CCCCN)C(=O)N[C@@H](CCC(=O)O)C(=O)N[C@@H](Cc1ccccc1)C(=O)N[C@@H](CCCCN)C(=O)N[C@@H](CCCCN)C(=O)N[C@H](C(=O)NCC(=O)N[C@@H](C)C(=O)N[C@@H](CCCCN)C(=O)N[C@@H](CC(C)C)C(=O)N[C@@H](CCCCN)C(=O)O)[C@@H](C)CC`, the viability was 94.9% (HeLa; cell growth or viability, MTT; 32 µg/mL).
`CC[C@H](C)[C@H](N)C(=O)N[C@@H](CCCNC(=N)N)C(=O)N[C@H](C(=O)N[C@@H](Cc1c[nH]c2ccccc12)C(=O)N[C@@H](CCCCN)C(=O)N[C@@H](CCCCN)C(=O)N[C@H](C(=O)N[C@H](C(=O)N[C@@H](CCCNC(=N)N)C(=O)N[C@@H](CCCCN)C(=O)N[C@@H](CCSC)C(=O)N[C@@H](CCCCN)C(=O)N[C@@H](C)C(=O)N[C@H](C(=O)N[C@@H](Cc1ccc(O)cc1)C(=O)N[C@@H](Cc1c[nH]cn1)C(N)=O)[C@@H](C)CC)C(C)C)[C@@H](C)CC)C(C)C` gave a hemolysis of 0.2 ± 0.1% (rat erythrocytes; 200 µM, 60 min, 37 °C).
The CC50 of `CC(=O)Oc1ccc(/C=C/C(=O)Oc2cc(C(F)(F)F)cc(C(F)(F)F)c2)cc1OC(C)=O` is reported as 94.8 µM (HaCaT; cell growth or viability, MTT; 24 h).
For `COc1cc2c3c(c1OC)-c1ccccc1C[C@H]3N(C)CC2`, the CC50 was 44 ± 3.25 µM (hACE2-A549 cells; 96 h).
The IC50 of `CC(=O)c1c(O)c(C)c(O)c2c1OC1=CC(=O)C(=C(C)NCCCC(=O)OC3OC4OC5(C)CCC6C(C)CCC(C3C)C46OO5)C(=O)C12C` (centres unmarked) is reported as 0.816 µM (L6 rat skeletal myoblasts; cytotoxicity, Alamar Blue).
`O=C1NC2(CC2)COc2ncc(F)cc2[C@H]2COCCN2c2ccn3ncc1c3n2`: “organ-to-body weight ratio” 0.768 ± 0.072% (Sprague-Dawley rat, male, testes; oral, 20 mg/kg/day, 4 weeks, end of treatment).

For quick reference, copied from above:
For `CNC(=O)C[C@H](Cc1ccncc1)NC(=O)[C@@H](Cc1cccc(Br)c1)NC(=O)[C@@H](N)Cc1ccsc1`, the viability was 0.952 and 1.03 and 1 (Huh-7-ACE2; CellTiter-Glo; 0.000381 µM, 48 h, unit not given; relative to: DMSO).
